{"data": "Measurements gathered from unrelated publications", "note": "Every numbered part comes from another study and shows a few of its results, in no order. “And” joins repeats or separate records; there may be more than shown. Positions count from the first letter of the parent shown.", "chain of UniProt P9WI81 (whole entry, looked up)": "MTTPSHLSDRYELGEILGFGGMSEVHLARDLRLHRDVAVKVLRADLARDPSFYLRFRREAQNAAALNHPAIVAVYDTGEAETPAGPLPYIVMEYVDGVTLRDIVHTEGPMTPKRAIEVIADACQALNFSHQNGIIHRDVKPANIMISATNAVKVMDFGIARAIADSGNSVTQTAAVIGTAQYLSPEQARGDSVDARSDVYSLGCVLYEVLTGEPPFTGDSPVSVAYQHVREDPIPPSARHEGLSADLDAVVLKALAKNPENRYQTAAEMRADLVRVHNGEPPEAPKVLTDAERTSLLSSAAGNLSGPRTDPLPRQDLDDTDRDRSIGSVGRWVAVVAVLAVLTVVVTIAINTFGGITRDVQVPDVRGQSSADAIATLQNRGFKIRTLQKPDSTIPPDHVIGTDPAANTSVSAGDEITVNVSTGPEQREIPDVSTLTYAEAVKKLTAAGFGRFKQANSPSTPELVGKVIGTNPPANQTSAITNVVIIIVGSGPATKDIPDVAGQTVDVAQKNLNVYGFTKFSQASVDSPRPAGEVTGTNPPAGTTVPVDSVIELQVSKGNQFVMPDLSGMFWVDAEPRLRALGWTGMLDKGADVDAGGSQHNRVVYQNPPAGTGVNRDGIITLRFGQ", "chain of UniProt Q9UK32 (whole entry, looked up)": "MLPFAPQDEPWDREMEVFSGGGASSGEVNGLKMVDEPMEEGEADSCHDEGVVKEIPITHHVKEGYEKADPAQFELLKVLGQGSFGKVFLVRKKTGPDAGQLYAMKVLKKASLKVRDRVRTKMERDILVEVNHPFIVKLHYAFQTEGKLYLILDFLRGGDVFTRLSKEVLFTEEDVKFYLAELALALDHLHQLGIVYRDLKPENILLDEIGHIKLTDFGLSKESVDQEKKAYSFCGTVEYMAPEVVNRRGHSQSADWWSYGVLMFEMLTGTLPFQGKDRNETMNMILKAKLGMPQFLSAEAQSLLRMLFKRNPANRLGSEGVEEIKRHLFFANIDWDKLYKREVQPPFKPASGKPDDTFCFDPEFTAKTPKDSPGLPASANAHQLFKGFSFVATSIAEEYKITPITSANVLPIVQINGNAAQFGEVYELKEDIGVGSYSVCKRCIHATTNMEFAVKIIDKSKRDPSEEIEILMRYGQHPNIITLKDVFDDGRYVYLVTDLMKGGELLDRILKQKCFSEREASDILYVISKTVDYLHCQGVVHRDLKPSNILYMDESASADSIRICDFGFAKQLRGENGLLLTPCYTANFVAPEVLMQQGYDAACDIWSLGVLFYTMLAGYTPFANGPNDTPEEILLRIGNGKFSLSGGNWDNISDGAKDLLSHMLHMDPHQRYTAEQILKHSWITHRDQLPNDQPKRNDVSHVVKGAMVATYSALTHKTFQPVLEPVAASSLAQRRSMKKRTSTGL", "chain of UniProt Q8NE63 (whole entry, looked up)": "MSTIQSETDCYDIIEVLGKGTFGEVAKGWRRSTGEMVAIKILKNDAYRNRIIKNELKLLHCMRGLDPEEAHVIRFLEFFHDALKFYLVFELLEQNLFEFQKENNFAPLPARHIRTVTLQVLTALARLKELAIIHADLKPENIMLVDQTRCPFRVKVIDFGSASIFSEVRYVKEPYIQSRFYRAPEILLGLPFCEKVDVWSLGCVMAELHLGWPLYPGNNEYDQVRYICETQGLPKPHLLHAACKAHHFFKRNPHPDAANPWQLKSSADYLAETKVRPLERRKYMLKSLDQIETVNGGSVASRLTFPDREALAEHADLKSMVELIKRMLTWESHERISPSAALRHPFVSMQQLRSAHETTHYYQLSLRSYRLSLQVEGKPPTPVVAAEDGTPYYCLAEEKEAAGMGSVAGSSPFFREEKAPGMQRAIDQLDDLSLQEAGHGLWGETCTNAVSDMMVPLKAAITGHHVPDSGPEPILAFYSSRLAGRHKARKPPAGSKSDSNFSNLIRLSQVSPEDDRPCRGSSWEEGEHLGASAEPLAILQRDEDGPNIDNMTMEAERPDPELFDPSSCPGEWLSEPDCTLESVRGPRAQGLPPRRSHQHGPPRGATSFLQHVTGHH", "chain of UniProt P54762 (whole entry, looked up)": "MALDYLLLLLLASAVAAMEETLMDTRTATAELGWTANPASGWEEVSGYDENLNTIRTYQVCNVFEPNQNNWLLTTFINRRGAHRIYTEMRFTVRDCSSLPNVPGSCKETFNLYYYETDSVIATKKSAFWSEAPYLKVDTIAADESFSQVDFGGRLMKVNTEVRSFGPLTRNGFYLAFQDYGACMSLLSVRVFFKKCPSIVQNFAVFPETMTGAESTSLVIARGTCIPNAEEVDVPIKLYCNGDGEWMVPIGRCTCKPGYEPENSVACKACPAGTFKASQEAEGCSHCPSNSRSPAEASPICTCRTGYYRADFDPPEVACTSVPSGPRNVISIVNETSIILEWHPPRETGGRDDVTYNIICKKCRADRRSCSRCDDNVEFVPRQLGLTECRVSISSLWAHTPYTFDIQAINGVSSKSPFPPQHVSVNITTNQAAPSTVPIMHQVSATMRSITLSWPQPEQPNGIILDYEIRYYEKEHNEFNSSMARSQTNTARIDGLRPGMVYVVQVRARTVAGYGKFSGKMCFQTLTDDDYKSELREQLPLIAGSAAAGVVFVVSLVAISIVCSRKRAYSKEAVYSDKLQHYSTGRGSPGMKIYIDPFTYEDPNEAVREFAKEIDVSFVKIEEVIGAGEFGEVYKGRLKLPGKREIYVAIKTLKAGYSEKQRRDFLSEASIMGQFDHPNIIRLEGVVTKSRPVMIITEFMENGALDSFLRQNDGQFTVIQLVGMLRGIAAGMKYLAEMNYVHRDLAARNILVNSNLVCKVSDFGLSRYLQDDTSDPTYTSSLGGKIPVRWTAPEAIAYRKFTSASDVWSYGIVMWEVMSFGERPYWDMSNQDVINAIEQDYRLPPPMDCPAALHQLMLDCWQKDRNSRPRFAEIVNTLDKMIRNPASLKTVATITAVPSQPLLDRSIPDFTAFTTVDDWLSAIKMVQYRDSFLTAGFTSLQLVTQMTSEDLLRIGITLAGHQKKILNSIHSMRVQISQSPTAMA", "chain of UniProt Q9UEE5 (whole entry, looked up)": "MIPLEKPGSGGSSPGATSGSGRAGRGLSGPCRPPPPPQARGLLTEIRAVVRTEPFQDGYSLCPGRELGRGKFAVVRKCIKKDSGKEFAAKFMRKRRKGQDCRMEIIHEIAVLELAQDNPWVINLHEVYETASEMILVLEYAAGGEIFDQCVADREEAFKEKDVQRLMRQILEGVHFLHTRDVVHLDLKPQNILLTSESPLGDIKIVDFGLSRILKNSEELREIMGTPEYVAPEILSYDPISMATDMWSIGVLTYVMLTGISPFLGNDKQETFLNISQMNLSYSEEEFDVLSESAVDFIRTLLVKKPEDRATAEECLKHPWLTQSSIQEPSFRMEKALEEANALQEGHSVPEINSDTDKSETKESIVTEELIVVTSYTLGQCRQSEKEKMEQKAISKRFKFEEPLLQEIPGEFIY"}
{"data": "Set 1", "cell line": "L929", "technique": "CCK-8", "concentration": "3.125 µM"}
{"Compound": "CC(C)S(=O)(=O)c1cc2c(Nc3ccc4sc(C5CCCC5)nc4c3)ccnc2cc1OCCO", "viability": "95.9% and 98% and 97.7% and 99.2%"}
{"Compound": "CC[C@@H](C)c1nc2cc(Nc3ccnc4ccc(S(=O)(=O)C(C)C)cc34)ccc2s1.Cl", "viability": "104% and 106% and 108%"}
{"Compound": "Cc1ccc(O)cc1Nc1ccnc2cc(-c3ccccn3)ccc12", "viability": "35.3% and 34.5% and 47.4% and 44.9% and 46.8%"}
{"data": "Set 2", "target": "CCND1, cyclin fold, Cln2 fusion (human)", "technique": "yeast growth competition, sequencing", "sample": "yeast", "setting": "strong parent motif", "relative to": "not given", "direction": "higher = stronger binding", "parent": "viral docking peptide; YKVKRRLVFGADD"}
{"Variant": "YKVKRRLVFGAGD [D12G]", "normalised enrichment score": 1.34}
{"Variant": "YKVARRLVFGADD [K4A]", "normalised enrichment score": 3.47}
{"Variant": "YKVKRRLQFGADD [V8Q]", "normalised enrichment score": 2.06}
{"Variant": "YKVKRRLVFGLDD [A11L]", "normalised enrichment score": 1.97}
{"Variant": "YKVERRLVFGADD [K4E]", "normalised enrichment score": 1.37}
{"Variant": "YKVKRRLVFGAED [D12E]", "normalised enrichment score": 2.02}
{"Variant": "YKVKRRLVHGADD [F9H]", "normalised enrichment score": -0.0891}
{"Variant": "YKVKRRNVFGADD [L7N]", "normalised enrichment score": 0.357}
{"data": "Set 3", "SMILES": "N/C(=N\\[N+](=O)[O-])N/N=C\\c1ccc(-c2cccc([N+](=O)[O-])c2)o1", "read-out": "enzyme activity", "mode": "inhibitor", "concentration": "0.5 µM", "relative to": "control"}
{"target": "STK17A (Homo sapiens, UniProt Q9UEE5)", "remaining activity [%]": 100}
{"target": "HIPK4 (Homo sapiens, UniProt Q8NE63)", "remaining activity [%]": 102}
{"target": "EPHB1 (Homo sapiens, UniProt P54762)", "remaining activity [%]": 107}
{"target": "RPS6KA6 (Homo sapiens, UniProt Q9UK32)", "remaining activity [%]": 96.9}
{"data": "Single results of other studies", "read-out": "cell-free assay", "technique": "competition with immobilised ligand", "CDPK1": "Calcium-dependent protein kinase 1 (CDPK1, Plasmodium falciparum, UniProt P62344)", "chain of UniProt P62344 (whole entry, looked up)": "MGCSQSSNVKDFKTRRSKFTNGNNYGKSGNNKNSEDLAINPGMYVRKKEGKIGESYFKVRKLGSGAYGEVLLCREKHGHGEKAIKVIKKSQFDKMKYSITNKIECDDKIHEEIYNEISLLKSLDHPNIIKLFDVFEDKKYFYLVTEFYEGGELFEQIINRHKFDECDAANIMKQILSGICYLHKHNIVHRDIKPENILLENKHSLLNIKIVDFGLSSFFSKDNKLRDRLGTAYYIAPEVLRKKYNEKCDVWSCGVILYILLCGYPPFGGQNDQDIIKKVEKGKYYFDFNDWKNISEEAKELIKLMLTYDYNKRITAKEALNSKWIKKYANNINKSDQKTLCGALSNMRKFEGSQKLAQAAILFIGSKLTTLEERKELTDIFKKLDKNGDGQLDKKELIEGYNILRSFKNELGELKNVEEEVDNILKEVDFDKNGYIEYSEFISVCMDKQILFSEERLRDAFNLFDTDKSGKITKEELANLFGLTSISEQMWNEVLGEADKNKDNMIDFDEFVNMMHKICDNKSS"}
{"SMILES": "Cc1c[nH]c2nccc(Oc3c(F)cc(Nc4cc(Cl)nc(N)n4)cc3F)c12", "target": "pknB (Mycobacterium tuberculosis, UniProt P9WI81)", "concentration": "0.1 µM", "remaining binding": "98%"}
{"SMILES": "c1ccc(N2CCN(Cc3nc4ccccc4[nH]3)CC2)nc1", "target": "CDPK1", "concentration": "1 µM", "remaining binding": "99%"}
{"SMILES": "CCCOc1ccc([C@@H]2[C@@H](C(=O)O)[C@H](c3ccc4c(c3)OCO4)CN2CC(=O)Nc2c(CC)cccc2CC)cc1", "target": "CDPK1", "concentration": "1 µM", "remaining binding": "64%"}
{"note": "For quick reference, copied from above (single results of other studies):"}
{"SMILES": "c1ccc(N2CCN(Cc3nc4ccccc4[nH]3)CC2)nc1", "target": "CDPK1", "concentration": "1 µM", "remaining binding": "99%"}
